{"data": "Measurements gathered from unrelated publications", "note": "A part holds a random share of what one study measured. Positions count from the first letter of the parent shown."}
{"data": "Sample 1", "target": "Sal-like protein 4, full length isoform B (SALL4, Homo sapiens, UniProt Q9UJQ4-2, residues 1-616)", "technique": "universal PBM", "molecule type": "double-stranded DNA, one strand shown", "sample": "in vitro", "concentration": "not given", "setting": "8-mer, flanks averaged, mean of replicates", "reading": "higher = stronger binding"}
{"Oligonucleotide": "AAGATAGA", "E-score": 0.148}
{"Oligonucleotide": "GCTCTTCC", "E-score": -0.178}
{"Oligonucleotide": "ACTTCATC", "E-score": 0.0825}
{"Oligonucleotide": "CCCGTCAG", "E-score": -0.328}
{"Oligonucleotide": "AGTTTCTA", "E-score": 0.098}
{"Oligonucleotide": "ATCACAAT", "E-score": 0.219}
{"Oligonucleotide": "AGGGTTCA", "E-score": -0.104}
{"Oligonucleotide": "GTTGGCAA", "E-score": 0.03}
{"Oligonucleotide": "GGTTGTAA", "E-score": 0.19}
{"Oligonucleotide": "AACAGCCT", "E-score": -0.227}
{"Oligonucleotide": "AGTTGTTA", "E-score": 0.136}
{"Oligonucleotide": "ACGTGACG", "E-score": 0.0354}
{"Oligonucleotide": "GGGCGTCA", "E-score": -0.21}
{"Oligonucleotide": "CCCATCTA", "E-score": 0.0689}
{"Oligonucleotide": "AGGTTTAC", "E-score": 0.0149}
{"Oligonucleotide": "AGAATTAA", "E-score": 0.196}
{"Oligonucleotide": "CTGTCGCC", "E-score": -0.299}
{"Oligonucleotide": "TTGGCAAA", "E-score": 0.184}
{"Oligonucleotide": "AATGTTGG", "E-score": 0.129}
{"Oligonucleotide": "CATCGTAG", "E-score": -0.0799}
{"Oligonucleotide": "ACACAGCC", "E-score": -0.2}
{"Oligonucleotide": "GGGAGCCC", "E-score": -0.402}
{"Oligonucleotide": "GTGCGGCA", "E-score": -0.12}
{"Oligonucleotide": "TCAGAACA", "E-score": 0.16}
{"Oligonucleotide": "CTCGGATA", "E-score": 0.0103}
{"data": "Sample 2", "target": "RING finger protein unkempt homolog, zinc fingers 1-6, GST-SBP tag (UNK, Homo sapiens, UniProt Q9C0B0, residues 30-357)", "technique": "RNA Bind-n-Seq", "molecule type": "RNA", "sample": "in vitro", "concentration": "not given", "setting": "RNA with constant flanks, human-mouse chimeric sites, ends assumed", "baseline": "input RNA pool", "reading": "higher = stronger binding", "all sequences stand within": "GGGAGUUCUACAGUCCGACGAUC … CAACAGAGGAUUGAGCAUCA", "chain of UniProt Q9C0B0 (30-357, looked up)": "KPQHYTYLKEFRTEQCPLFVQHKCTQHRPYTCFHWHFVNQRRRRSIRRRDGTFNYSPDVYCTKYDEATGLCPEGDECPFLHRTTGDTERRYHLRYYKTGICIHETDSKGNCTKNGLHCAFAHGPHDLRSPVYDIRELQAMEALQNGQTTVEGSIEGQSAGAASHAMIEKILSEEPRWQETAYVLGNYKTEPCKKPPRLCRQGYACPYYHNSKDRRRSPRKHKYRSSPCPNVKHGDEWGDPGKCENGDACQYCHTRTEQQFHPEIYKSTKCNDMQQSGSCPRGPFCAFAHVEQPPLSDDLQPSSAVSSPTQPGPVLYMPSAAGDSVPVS"}
{"Oligonucleotide": "AAAGAGUGGAUAGAGUGUGCACACGGGAUCGGUGGGACCCGGGCGAAAAAGGAGUGCAAGAUAGAAUUCGAUGACUUCGAAGAGUGCUUGCUUCGGCACAAAACGAUGAGGCGAAUGCAU", "bound/input enrichment [ratio]": 0.393}
{"Oligonucleotide": "GAGUCGAUUAUGGAAACAACAAUUCGUUAUCUUGCAGCCUCAGUGUUCACUUGCUUGGCGAUAGCAUUGGGGUUUUAUAGGUUCUGGGGAAGUAGUAGACGAUGAUGCUGCCGCUGCUGC", "bound/input enrichment [ratio]": 0.875}
{"Oligonucleotide": "GUGUCCUGCUUUCAACUUAAAUCACUGAGGCAUCUCUACUAUUCUGUGAGCAUCAGGACUGUAGCGCUGUGUCACCACAUGAGAGUUCAGAAGCAGCCUUUCUGUGGAGAGUGAGAAUGA", "bound/input enrichment [ratio]": 0.0964}
{"Oligonucleotide": "GUGACUGACAUUAAAAUUUCCCCUCAGAAAAGAACUGCAGUAGUCACCAUAAUUCCAUCUGUGGUGAGUGCCAGUCAGAUUGUGGAGCUGGUCCCAGACCUCAGUUUAGACAUGGGAACU", "bound/input enrichment [ratio]": 0.435}
{"Oligonucleotide": "CCUGCUCAGAUCACCAUGAAAGUAAUCCAAGGCCUAUACAGUGGGGUCACCACAGUGGAACUGGACACUUUGGCUGCUGAGACAGCCGCGACCUUGACCACGAAGCACCCUGACUAUGCC", "bound/input enrichment [ratio]": 0.099}
{"Oligonucleotide": "CGCUUGGAUGAGGCGGGUGUCACAGAUGAAGUGCUAGAUUCUGCCAUGCAAGCCUUCUUACUAGAAAUCAUUGUUAAACAUGGGGAGCCAGCCCCUUAUUUAUGUAACAAAGAUCCGUUU", "bound/input enrichment [ratio]": 0.303}
{"Oligonucleotide": "AAAGAGUGGAUAGAGUGUGCACACGGGAUCGGUGGGACCCGGGCGAAGAAAGAGUGCAAGAUAGAGUUCGAUGACUUCGAAGAGUGCUUGCUUCGGUACAAAACGAUGAGACGUGCACAU", "bound/input enrichment [ratio]": 0.266}
{"Oligonucleotide": "AAAGUGGACUAUGGCGAGUACAUGGAUAAAAACAAUGUGAGGCGGCAAGCAACAACAAUCAUAGCUGAUAACAUUAUAUUUCUGAGUGACCAGACGAAAGAAAAGGCAUAGAACGGAUGA", "bound/input enrichment [ratio]": 2.02}
{"Oligonucleotide": "UACUCAACUUUCUUGCCACAUUUUGAAUUCCAAGACAUUAUCCCUCCAGAUGACUUCCUAACGAGUGAUGAAGAGCAAGAUUUGGUUUUAUUUGGAACUAUGAGAGGUCAUGUGGUUGGA", "bound/input enrichment [ratio]": 0.233}
{"Oligonucleotide": "GCAAAGGAUGAUGAGGCAGCUGCAGUUGCCCUUUCCUCUCUCGUUCAUGCUUUGGAUGAGUUAAACAUGGUCGCCAUCGUCCGAUAUGCUUAUGACAAAAGAUCUAAUCCUCAAGUCGGU", "bound/input enrichment [ratio]": 0.212}
{"Oligonucleotide": "CUGAGGAUACCACUGAAAGAGACAUUAAAGGAGUCAUUGAGGGCUCUGUUCGUGCAAGAAUAGUCACUGAUCGGGAAACUGGUUCUUCCAAAGGGUUUGGUUUUGUAGACUUUAAUAGUG", "bound/input enrichment [ratio]": 0.977}
{"data": "Sample 3", "target": "ABI1, truncated, D143A, DHFR fusion (Arabidopsis thaliana)", "technique": "DHFR PCA, deep sequencing", "sample": "yeast", "setting": "methotrexate growth selection, single substitutions", "added": "(+)-ABA 1.4 µM", "baseline": "wild-type fitted maximum", "reading": "higher = stronger binding", "starting sequence": "PYL1, truncated, DHFR fusion (Arabidopsis thaliana); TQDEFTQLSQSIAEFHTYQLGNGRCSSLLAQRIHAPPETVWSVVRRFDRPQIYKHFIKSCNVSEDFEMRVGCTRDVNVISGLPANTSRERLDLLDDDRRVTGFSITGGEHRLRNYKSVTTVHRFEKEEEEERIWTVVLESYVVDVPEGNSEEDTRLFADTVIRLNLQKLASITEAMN"}
{"Substitution": "Y141V", "relative binding score [%]": -1.55}
{"Substitution": "E174T", "relative binding score [%]": 16.5}
{"Substitution": "V118Y", "relative binding score [%]": 0.473}
{"Substitution": "S87H", "relative binding score [%]": 25.1}
{"Substitution": "T1K", "relative binding score [%]": 53.7}
{"Substitution": "N61Q", "relative binding score [%]": 71.7}
{"Substitution": "F56M", "relative binding score [%]": 11.3}
{"Substitution": "I12Y", "relative binding score [%]": 7.26}
{"Substitution": "D65P", "relative binding score [%]": 67.6}
{"Substitution": "D65W", "relative binding score [%]": 9.91}
{"Substitution": "F47N", "relative binding score [%]": 5.53}
{"Substitution": "D75M", "relative binding score [%]": 69.4}
{"Substitution": "L29W", "relative binding score [%]": 1.76}
{"Substitution": "V78A", "relative binding score [%]": 2.28}
{"Substitution": "K126P", "relative binding score [%]": 88.1}
{"Substitution": "V43D", "relative binding score [%]": -8.41}
{"Substitution": "F5W", "relative binding score [%]": 63.3}
{"Substitution": "N85M", "relative binding score [%]": 60.1}
{"Substitution": "N165E", "relative binding score [%]": 18.1}
{"Substitution": "L166D", "relative binding score [%]": 7.5}
{"Substitution": "S27M", "relative binding score [%]": 6.89}
{"Substitution": "S63E", "relative binding score [%]": 49.7}
{"Substitution": "V121M", "relative binding score [%]": 2.44}
{"Substitution": "E125K", "relative binding score [%]": 59.6}
{"data": "Sample 4", "target": "RNA binding protein fox-1 homolog 2, RRM domain, GST-SBP tag (RBFOX2, Homo sapiens, UniProt O43251-10, residues 100-194)", "technique": "RNA Bind-n-Seq", "molecule type": "RNA", "sample": "in vitro", "concentration": "365 nM", "setting": "natural RNA segment, single round, ends assumed", "baseline": "no-protein control", "reading": "higher = stronger binding", "all sequences stand within": "GGGAGUUCUACAGUCCGACGAUC … UGGAAUUCUCGGGUGCCAA", "Residues (chain)": "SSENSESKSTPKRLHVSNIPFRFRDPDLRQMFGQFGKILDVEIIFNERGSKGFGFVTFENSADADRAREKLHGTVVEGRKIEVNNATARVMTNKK"}
{"Oligonucleotide": "CUGUGCCCCCGAGCUGCCCCCACCCCCUCACAGGGUCCCUCAGAUUAUAGGUGCCCAGGCUGAGGUGAAGAGGCCUGGGGGCCCUGCCUUCCGGGCGCUCCUGGACCCUG", "RBNS enrichment (R)": 0.455}
{"Oligonucleotide": "GCUUGGCUGUUCCACCAGAGCAGAGGGAAUCAUUGCUGGACUGGAUUUCUUCUGGAGGGAAGCACCAUGAAUUAAAGGUGCCAGAGCUCCAUGCAUGGAAAAGUGGCCUG", "RBNS enrichment (R)": 3.91}
{"Oligonucleotide": "CCCAUUACCUAGAUGGCACCUCCUUUGGUGAAACCACGGCCAAUGUUCCUUAGCUGCACCAGGCCCGAAGCUGUUCCCAUGCUUGAGCUUCCAUGGGGAGGAUGCUGAGU", "RBNS enrichment (R)": 1.09}
{"Oligonucleotide": "UCUCUCUCCUUCAUGUGCUAUUCUCCUUCCCCAGGCAGAUUGGCAGGGGAAGUGGGAGCAGAUGGCCUGCCUGUGGUUGAGAGGGCUACCUGCCCGACCCCUCCCCCACC", "RBNS enrichment (R)": 0.749}
{"Oligonucleotide": "CAUGAUUUCACAAAUAUUAAAAUGUCUUUUAAAAAGUAUUGCCAAACAGUAAUGUUGAUUUCUAGUUAUUUAUUCUGGGAAUGUAUAGUAUUUGAAAACAGAAAUUGGUA", "RBNS enrichment (R)": 0.445}
{"Oligonucleotide": "GUGGCUGGGGCUCCCUUACCAGAGGGGCAAGUCUGGCCCCUCAGUCCUUAACUGGAAAGUGACCCUCUUCUACCCCUGGAGUCCAUCUGGACAGAGCCAGCCUGAGGCCC", "RBNS enrichment (R)": 0.566}
{"Oligonucleotide": "AAGAUGGCCCCCGCACAGCCUUCAUCUCAUCCUGUGGGACUCUGACGUCACAGAACACCCAGGAAAGGGGAUUUCUGUGGUAUCACCGAGAACAUGUUAGCAGUCUGUCA", "RBNS enrichment (R)": 0.282}
{"Oligonucleotide": "AUCCUCACUUUGGCAGUGCUUCCUCUCCUGUCAAUUCCAGGCUCUUUCCAUAACCACAAGCCUGAGGCUGCAGCCUUUUAUUUAUGUUUUCCCUUUGGCUGUGACUGGGU", "RBNS enrichment (R)": 0.882}
{"Oligonucleotide": "UGAUGGUUGCGAGUGCAGGGACACUGGACAUAUGGGCUCAGUGCUGAGAGGUGGCAGAGCUGCGCUCCUGCCCACAGUGCUAGCCCAGGAAUCCUGGGGAGGCUGAGUAG", "RBNS enrichment (R)": 0.684}
{"Oligonucleotide": "UUCUCAGAGCCAAGUCCUCCCUCUCUACUGGAGUGGAAGGUCUAUUGGCCAACAAUCCUUUCUGCCCACUUCCCCUUCCCCAAUUACUAUUCCCUUUGACUUCAGCUGCC", "RBNS enrichment (R)": 0.732}
{"Oligonucleotide": "CUCCUACUUUUGUCCACCACCCCUGCCUCCUGGAUCUUCUCCCACUUUUUUUUUCAGCUUUAGGACCUGGGGAGAUCCUGUGAGUCAAGGCAGACACCCAAUCCUGCCCC", "RBNS enrichment (R)": 1.17}
{"Oligonucleotide": "GUGAUUUUGUUCCAGAUGUCUAUGGCUGGGUGUGUGGGGGAGGAGCACUCUCAUCUGCAGGACUCUGCUUGAUCCUCUGCUUCAUAGCCCUUCCCCAUCUCUCCUCACCA", "RBNS enrichment (R)": 0.614}
{"note": "For quick reference, copied from above (sample 2):"}
{"Oligonucleotide": "CGCUUGGAUGAGGCGGGUGUCACAGAUGAAGUGCUAGAUUCUGCCAUGCAAGCCUUCUUACUAGAAAUCAUUGUUAAACAUGGGGAGCCAGCCCCUUAUUUAUGUAACAAAGAUCCGUUU", "bound/input enrichment [ratio]": 0.303}
{"Oligonucleotide": "AAAGAGUGGAUAGAGUGUGCACACGGGAUCGGUGGGACCCGGGCGAAGAAAGAGUGCAAGAUAGAGUUCGAUGACUUCGAAGAGUGCUUGCUUCGGUACAAAACGAUGAGACGUGCACAU", "bound/input enrichment [ratio]": 0.266}
{"Oligonucleotide": "AAAGUGGACUAUGGCGAGUACAUGGAUAAAAACAAUGUGAGGCGGCAAGCAACAACAAUCAUAGCUGAUAACAUUAUAUUUCUGAGUGACCAGACGAAAGAAAAGGCAUAGAACGGAUGA", "bound/input enrichment [ratio]": 2.02}
{"Oligonucleotide": "UACUCAACUUUCUUGCCACAUUUUGAAUUCCAAGACAUUAUCCCUCCAGAUGACUUCCUAACGAGUGAUGAAGAGCAAGAUUUGGUUUUAUUUGGAACUAUGAGAGGUCAUGUGGUUGGA", "bound/input enrichment [ratio]": 0.233}
{"Oligonucleotide": "GCAAAGGAUGAUGAGGCAGCUGCAGUUGCCCUUUCCUCUCUCGUUCAUGCUUUGGAUGAGUUAAACAUGGUCGCCAUCGUCCGAUAUGCUUAUGACAAAAGAUCUAAUCCUCAAGUCGGU", "bound/input enrichment [ratio]": 0.212}
{"Oligonucleotide": "CUGAGGAUACCACUGAAAGAGACAUUAAAGGAGUCAUUGAGGGCUCUGUUCGUGCAAGAAUAGUCACUGAUCGGGAAACUGGUUCUUCCAAAGGGUUUGGUUUUGUAGACUUUAAUAGUG", "bound/input enrichment [ratio]": 0.977}
